Results collected from several papers.
Lines come from different studies, so protocols differ. ± marks the error that the study gave.
B1: CSF1 33-496 (Homo sapiens, UniProt P09603); chain EEVSEYCSHMIGSGHLQSLQRLIDSQMETSCQITFEFVDQEQLKDPVCYLKKAFLLVQDIMEDTMRFRDNTPNAIAIVQLQELSLRLKSCFTKDYEEHDKACVRTFYETPLQLLEKVKNVFNETKNLLDKDWNIFSKNCNNSFAECSSQDVVTKPDCNCLYPKAIPSSDPASVSPHQPLAPSMAPVAGLTWEDSEGTEGSSLLPGEQPLHTVDPGSAKQRPPRSTCQSFEPPETPVVKDSTIGGSPQPRPSVGAFNPGMEDILDSAMGTNWVPEEASGEASEIPVPQGTELSPSRPGGGSMQTEPARPSNFLSASSPLPASAKGQQPADVTGTALPRVGPVRPTGQDWNHTPQKTDHPSALLRDPPEPGSPRISSLRPQGLSNPSTLSAQPQLSRSHSSGSVLPLGELEGRRSTRDRRSPAEPEGGPASEGAARPLPRFNSVPLTDTGHERQSEGSFSPQLQES
B2: UGT1A9 (Homo sapiens, UniProt O60656); chain GKLLVVPMDGSHWFTMRSVVEKLILRGHEVVVVMPEVSWQLGRSLNCTVKTYSTSYTLEDLDREFKAFAHAQWKAQVRSIYSLLMGSYNDIFDLFFSNCRSLFKDKKLVEYLKESSFDAVFLDPFDNCGLIVAKYFSLPSVVFARGILCHYLEEGAQCPAPLSYVPRILLGFSDAMTFKERVRNHIMHLEEHLLCHRFFKNALEIASEILQTPVTEYDLYSHTSIWLLRTDFVLDYPKPVMPNMIFIGGINCHQGKPLPMEFEAYINASGEHGIVVFSLGSMVSEIPEKKAMAIADALGKIPQTVLWRYTGTRPSNLANNTILVKWLPQNDLLGHPMTRAFITHAGSHGVYESICNGVPMVMMPLFGDQMDNAKRMETKGAGVTLNVLEMTSEDLENALKAVINDKSYKENIMRLSSLHKDRPVEPLDLAVFWVEFVMRHKGAPHLRPAAHDLTWYQYHSLDVIGFLLAVVLTVAFITFKCCAYGYRKCLGKKGRVKKAHKSKTH
B3: FBXO5 zinc binding region (Homo sapiens); chain SEVAKTLKKNESLKACIRCNSPAKYDCYLQRATCKREGCGFDYCTKCLCNYHTTKDCSDGKLLKASCKIG
B4: CRYBB1 149-252 (Homo sapiens, UniProt P53674); sequence looked up; chain HKISLFEGANFKGNTIEIQGDDAPSLWVYGFSDRVGSVKVSSGTWVGYQYPGYRGYQYLLEPGDFRHWNEWGAFQPQMQSLRRLRDKQWHLEGSFPVLATEPPK
Chain of UniProt Q9Y2K7 (whole entry, unmodified, looked up): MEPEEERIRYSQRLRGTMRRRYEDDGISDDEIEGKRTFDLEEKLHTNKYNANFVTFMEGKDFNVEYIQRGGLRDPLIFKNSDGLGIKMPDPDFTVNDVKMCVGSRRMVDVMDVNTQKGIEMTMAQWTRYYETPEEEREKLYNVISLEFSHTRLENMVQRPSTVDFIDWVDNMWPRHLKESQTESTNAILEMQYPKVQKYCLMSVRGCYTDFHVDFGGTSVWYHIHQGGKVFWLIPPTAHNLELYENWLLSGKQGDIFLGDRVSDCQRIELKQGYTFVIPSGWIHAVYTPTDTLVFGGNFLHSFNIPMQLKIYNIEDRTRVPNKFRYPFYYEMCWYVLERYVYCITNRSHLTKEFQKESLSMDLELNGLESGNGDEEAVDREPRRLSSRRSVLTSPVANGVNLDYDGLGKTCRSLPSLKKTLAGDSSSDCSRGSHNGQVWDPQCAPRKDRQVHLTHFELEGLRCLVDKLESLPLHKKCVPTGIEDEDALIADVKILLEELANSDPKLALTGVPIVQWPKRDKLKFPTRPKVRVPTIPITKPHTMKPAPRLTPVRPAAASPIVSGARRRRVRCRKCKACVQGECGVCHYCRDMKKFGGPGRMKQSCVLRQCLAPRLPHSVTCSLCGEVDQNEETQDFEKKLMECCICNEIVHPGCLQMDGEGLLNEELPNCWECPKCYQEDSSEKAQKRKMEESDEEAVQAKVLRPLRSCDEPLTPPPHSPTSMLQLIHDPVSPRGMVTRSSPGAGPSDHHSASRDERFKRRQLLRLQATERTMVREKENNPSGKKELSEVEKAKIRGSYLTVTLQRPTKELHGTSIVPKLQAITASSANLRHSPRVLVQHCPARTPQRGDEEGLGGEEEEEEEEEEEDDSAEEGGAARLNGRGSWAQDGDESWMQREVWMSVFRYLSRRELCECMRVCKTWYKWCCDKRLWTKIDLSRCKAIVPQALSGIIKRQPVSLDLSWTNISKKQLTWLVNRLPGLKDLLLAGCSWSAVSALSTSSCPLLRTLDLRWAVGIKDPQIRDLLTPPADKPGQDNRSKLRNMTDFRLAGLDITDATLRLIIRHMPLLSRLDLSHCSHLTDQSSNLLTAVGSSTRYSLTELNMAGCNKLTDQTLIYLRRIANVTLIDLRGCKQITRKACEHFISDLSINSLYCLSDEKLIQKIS
Chain of UniProt P43219 (whole entry, looked up): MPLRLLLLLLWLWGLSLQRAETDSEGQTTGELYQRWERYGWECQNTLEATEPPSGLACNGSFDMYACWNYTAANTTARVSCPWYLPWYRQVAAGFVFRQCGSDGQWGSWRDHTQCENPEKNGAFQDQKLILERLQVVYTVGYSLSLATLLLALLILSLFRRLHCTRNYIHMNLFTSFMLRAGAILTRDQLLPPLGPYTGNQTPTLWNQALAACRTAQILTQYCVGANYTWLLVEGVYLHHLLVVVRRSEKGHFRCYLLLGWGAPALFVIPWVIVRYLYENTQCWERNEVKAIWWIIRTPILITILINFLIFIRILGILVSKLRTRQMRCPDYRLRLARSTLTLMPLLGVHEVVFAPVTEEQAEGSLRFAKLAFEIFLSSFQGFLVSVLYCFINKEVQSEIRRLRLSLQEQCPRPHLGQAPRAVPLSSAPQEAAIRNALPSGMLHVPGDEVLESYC
Chain of UniProt P12314 (whole entry, looked up): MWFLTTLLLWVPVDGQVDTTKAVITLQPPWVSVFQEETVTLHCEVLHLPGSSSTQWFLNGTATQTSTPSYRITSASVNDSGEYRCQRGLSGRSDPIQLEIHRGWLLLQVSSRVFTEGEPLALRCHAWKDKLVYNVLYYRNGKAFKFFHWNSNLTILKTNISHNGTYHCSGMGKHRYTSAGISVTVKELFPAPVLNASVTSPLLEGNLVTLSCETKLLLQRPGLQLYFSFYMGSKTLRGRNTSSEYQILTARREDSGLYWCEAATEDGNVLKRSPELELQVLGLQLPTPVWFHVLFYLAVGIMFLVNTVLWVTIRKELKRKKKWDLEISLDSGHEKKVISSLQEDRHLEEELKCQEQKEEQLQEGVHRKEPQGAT
Chain of UniProt P05813 (whole entry, looked up): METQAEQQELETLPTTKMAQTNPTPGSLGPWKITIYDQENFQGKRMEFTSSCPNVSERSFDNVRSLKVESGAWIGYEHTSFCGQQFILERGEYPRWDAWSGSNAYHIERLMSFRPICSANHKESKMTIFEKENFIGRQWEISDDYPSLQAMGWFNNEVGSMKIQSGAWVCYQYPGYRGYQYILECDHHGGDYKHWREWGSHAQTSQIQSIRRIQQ

B1 (CSF1 33-496)  kon (CSF1R Fc fusion D1-D5 M149K (Homo sapiens, UniProt P07333); SPR; pH 7.4, NaCl 0.15 M): 1.3e+07 M⁻¹ s⁻¹
CGA/LHB (Equus caballus)  EC50 (LHCGR D590Y (eel); cAMP response, agonist, HTRF; CHO-K1; 30 min, room temperature): 0.0311 µg/mL
CTNNB1, tyrosine phosphorylated (Mus musculus, UniProt Q02248)  relative ratio (Cdh1 (Mus musculus); co-IP; keratinocytes, lysate; with: tyrosine phosphatase 25 mU; baseline: phosphatase with inhibitors, lower = less molecule bound): 1.2
B2 (UGT1A9)  Vmax (Cc1ccc2oc(-c3ccccc3)c(O)c(=O)c2c1; steady-state kinetics; pH 7.4, 37 °C): 0.00675 µmol/min/mg
SHMT2 dimer, PLP-free (Homo sapiens)  IC50 (BRCC3/ABRAXAS2/BABAM2/BABAM1 (Homo sapiens); DUB activity, inhibitor; with: K63-diUb substrate): 9 nM
YAEGTFISDYSIAMDKIRQQDFVNWLLAQRGKKSDWKHNITQ (Gip mature (Mus musculus, UniProt P48756))  Ki (Gipr (Rattus norvegicus, UniProt P43219); radioligand binding): 1.2 nM
RCVRLHESCLGQQVPCCDPCATCYCRFFNAFCYCRKLGTAMNPCSRT (AGRP 86-132 (Homo sapiens, UniProt O00253); sequence looked up)  inverse agonist EC50 (MC4R D189Q (Homo sapiens, UniProt P32245); cAMP, inverse agonist, AlphaScreen; HEK293; apparent): 17 nM
B3 (FBXO5 zinc binding region)  Ki (APC/C (Homo sapiens); ubiquitination assay; apparent, without CDH1, with: UBE2S): > 80000 nM
FGF14 fragment, N-terminal adamantanecarbonyl, Glu tert-butyl ester, C-terminal ethyl ester (Homo sapiens)  kon (FGF14 64-252 (Homo sapiens, UniProt Q92915-2); SPR): 217 M⁻¹ s⁻¹
Hu 15C1 monovalent, half Fc (Homo sapiens)  potency gain (FCGR1A (Homo sapiens, UniProt P12314); LPS-induced TLR4 activation; THP1-XBlue; without IVIg; baseline: format without Fc, higher = greater potency gain): > 1000 fold
YFCHQYL  inhibition (peptide, human polyclonal IgM RF LOP; concentration not given, 5 µg/mL mAb II-481 coated, with: RF at 50% max binding concentration): 10%
histone H3 peptide P38A, K36me2  demethylation (KDM2A 36-517 del365-449 (UniProt Q9Y2K7); demethylation; baseline: wild-type H3K36me2 peptide, higher = less demethylation): 7 fold reduction
SGVPDRF  inhibition (peptide, human polyclonal IgM RF STR; concentration not given, 5 µg/mL mAb II-481 coated, with: RF at 50% max binding concentration): 18%
B4 (CRYBB1 149-252)  subunit exchange rate (CRYBA1, Alexa Fluor 488 label (Homo sapiens, UniProt P05813); FRET; pH 7.5, 37 °C, 100 mM NaCl): 0.0344 ± 0.003 min⁻¹
